# Assay results gathered from unrelated publications.
# Each line is one published result; not all experiments were run side by side. “And” joins repeats or separate records; there may be more than shown. ± marks the error that the study gave.
Structure (SMILES),test system,setting,endpoint,value
CN1CCN(C(=S)N/N=C/c2ccccc2O)CC1,plasma,"intravenous, 30 mg/kg, 5 min",plasma concentration,8420 ± 721 ng/mL
CC(=O)N[C@H](CC(=O)O)C(=O)N[C@H](Cc1c[nH]c2ccccc12)C(=O)N[C@H](Cc1ccccc1)C(=O)N[C@H](CCCCN)C(=O)N[C@H](C)C(=O)N[C@H](Cc1ccccc1)C(=O)N[C@H](Cc1ccc(O)cc1)C(=O)N[C@H](CC(=O)O)C(=O)N[C@H](CCCCN)C(=O)N[C@@H](C(=O)N[C@H](C)C(=O)N[C@H](CCC(=O)O)C(=O)N[C@H](CCCCN)C(=O)N[C@H](Cc1ccccc1)C(=O)N[C@H](CCCCN)C(=O)N[C@H](CCC(=O)O)C(=O)N[C@H](C)C(=O)N[C@H](Cc1ccccc1)C(N)=O)C(C)C,"human, plasma","oral, dose not given, 4 h post-dose, day 13",plasma concentration,75.6 ng/mL
C=C[C@]1(C)C[C@@H](OC(=O)CSc2ccc(NC(=O)c3ccco3)cc2)[C@]2(C)[C@H](C)CC[C@]3(CCC(=O)[C@H]32)[C@@H](C)[C@@H]1O,"Mycoplasma gallisepticum-infected chickens, plasma","intramuscular, 40 mg/kg, 12 h",plasma concentration,35.8 ng/mL and 56.5 ng/mL and 6.98 ng/mL and 35.1 ng/mL and 37.2 ng/mL and 36.7 ng/mL and 39.3 ng/mL and 53.1 ng/mL
COc1ccc2c(c1)CN(C(=O)CCN1CCC(Cc3ccccc3)CC1)CC[S@@+]2[O-],healthy male volunteers,"intravenous, 0.2 mg/kg",plasma concentration,481 ng/mL
O=C(Oc1cccc(CSc2ncccn2)c1)c1ccc([N+](=O)[O-])cc1,mouse plasma,"concentration not given, 5 min",plasma level,not detected
Cc1cccc(Cn2ncc3c4cc(F)c(CN(C)C)cc4n(C)c3c2=O)n1,"Dutch-belted rabbit, plasma","intravitreal, 1 µM vitreous, 0.04 days",plasma concentration,not detected
COc1ccc2c(c1)CN(C(=O)CCN1CCC(Cc3ccccc3)CC1)CCS2,paroxysmal AF patients,"oral, 540 mg, 0 min",plasma concentration,0 ng/mL
COc1ccc2cc3[n+](cc2c1OCCCOC(=O)c1cscn1)CCc1cc2c(cc1-3)OCO2,hyperlipidemic hamster,"dose not given, 3 weeks",plasma ALT reduction,43.8%
C[C@@H](CO)NC(=O)c1cc(-c2ccc(Cl)cc2)nn(-c2cnn(C)c2)c1=O,rat plasma,"up to 2 h, 37 °C",plasma stability,stable

# For quick reference, copied from above:
Structure (SMILES),test system,setting,endpoint,value
COc1ccc2c(c1)CN(C(=O)CCN1CCC(Cc3ccccc3)CC1)CC[S@@+]2[O-],healthy male volunteers,"intravenous, 0.2 mg/kg",plasma concentration,481 ng/mL
